Results collected from several papers.
Compare with care: the assays were run in different laboratories. ± marks the error that the study gave.
Sample: plasma

SMILES = NC1(c2ccccc2Cl)CCCCC1=O (racemic); system = male Wistar rats; conditions = intraperitoneal, 40 mg/kg single dose; Cmax = 2560 ± 850 ng/mL
SMILES = Cc1cccc(C)c1OCC(=O)N[C@@H](Cc1ccccc1)[C@@H](O)C[C@H](Cc1ccccc1)NC(=O)[C@H](C(C)C)N1CCCNC1=O; system = male Sprague-Dawley rats; conditions = oral, 160 mg/kg, alone; Cmax = 1140 ng/mL
SMILES = CCCC(=O)OCSc1ccccc1C(=O)NCCC(N)=O; system = Sprague-Dawley rat, male; conditions = intravenous, 50 mg/kg; Cmax = 3 ± 4.1 ng/mL
SMILES = COc1ccc2c(c1)[C@]13CCCC[C@@H]1[C@H](C2)N(C)CC3; test = item: MDMA; system = rat; conditions = intraperitoneal, 30 mg/kg, three doses, together with: MDMA 20 mg/kg oral; how to read = relative to: MDMA with saline; Cmax = no effect
SMILES = CN1CC[C@@]23CCCC[C@@H]2[C@@H]1Cc1ccc(O)cc13; system = Wistar rat, both sexes; conditions = oral, 5 mg/kg DEM, DEM 2 h after pretreatment, together with: TCE 100 mg/kg single pretreatment; Cmax = 19.9 ± 10.9 ng/mL
SMILES = CNC(=O)c1ccc(-c2cnn3ccc(C(=O)N(C)c4ccc(Cl)c(C(=O)OC)c4)cc23)cc1; system = Wistar rats, both sexes; conditions = oral, 500 mg/kg/dose, 1000 mg/kg/day, day 1; Cmax = 3.32 ng/mL
SMILES = COc1ccc2c(c1)[C@]13CCCC[C@@H]1[C@H](C2)N(C)CC3; system = Wistar rat, both sexes; conditions = oral, 5 mg/kg, 2 h after pretreatment, together with: single TCE 100 mg/kg; Cmax = 71.8 ± 13.6 ng/mL
SMILES = C[C@H]1CNCCc2ccc(Cl)cc21; system = male Sprague-Dawley rat; conditions = subcutaneous, pimavanserin 0.5 + lorcaserin 0.5 mg/kg, pimavanserin 15 min earlier; Cmax = 14.7 ± 0.71 ng/mL
